Measured values from different studies.
Numbered parts are unrelated; each lists some results of a single study.

Set 1
Target: Centromere-binding protein 1, full length, N-terminal tag (CBF1, Saccharomyces cerevisiae, UniProt P17106, residues 1-351)
Chain of UniProt P17106 (whole entry, looked up): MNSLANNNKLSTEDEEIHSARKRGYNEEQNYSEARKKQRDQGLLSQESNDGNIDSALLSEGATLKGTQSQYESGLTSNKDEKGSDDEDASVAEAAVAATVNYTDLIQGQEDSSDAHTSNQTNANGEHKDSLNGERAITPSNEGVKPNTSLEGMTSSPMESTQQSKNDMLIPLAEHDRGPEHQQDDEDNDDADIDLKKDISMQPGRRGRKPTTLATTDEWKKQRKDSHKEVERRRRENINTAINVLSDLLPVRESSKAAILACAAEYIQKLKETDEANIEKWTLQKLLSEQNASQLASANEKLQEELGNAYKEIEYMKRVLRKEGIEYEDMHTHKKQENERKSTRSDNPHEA
Method: protein-binding microarray
Molecule type: double-stranded DNA, one strand shown
Matrix: in vitro
Tested at: 0.8 µM
Notes: whole 60-bp probe, no competitor
Direction: higher = stronger binding
| Strand | fluorescence intensity |
| --- | --- |
| GAAGGCGGGGCAAACGTGATGGCGCTTGCTATTTAGGTCTTGATTCGCTTGACGCTGCTG | 611 a.u. |
| GAACTTGTTCCATTTAACGTGGATTTGACTTGCTAGGTCTTGATTCGCTTGACGCTGCTG | 500 a.u. |
| GAAATAATTTTCCATGGCGTGCTTTTACCAAAGTAGGTCTTGATTCGCTTGACGCTGCTG | 599 a.u. |
| CTAATCATAAATCAGCACGCAAACGGTAAAGAATTCGTCTTGATTCGCTTGACGCTGCTG | 524 a.u. |

Set 2
Target: Sal-like protein 4, full length isoform B (SALL4, Homo sapiens, UniProt Q9UJQ4-2, residues 1-616)
Method: universal PBM
Molecule type: double-stranded DNA, one strand shown
Matrix: in vitro
Tested at: not given
Notes: 8-mer, flanks averaged, mean of replicates
Direction: higher = stronger binding
Target sequence (chain): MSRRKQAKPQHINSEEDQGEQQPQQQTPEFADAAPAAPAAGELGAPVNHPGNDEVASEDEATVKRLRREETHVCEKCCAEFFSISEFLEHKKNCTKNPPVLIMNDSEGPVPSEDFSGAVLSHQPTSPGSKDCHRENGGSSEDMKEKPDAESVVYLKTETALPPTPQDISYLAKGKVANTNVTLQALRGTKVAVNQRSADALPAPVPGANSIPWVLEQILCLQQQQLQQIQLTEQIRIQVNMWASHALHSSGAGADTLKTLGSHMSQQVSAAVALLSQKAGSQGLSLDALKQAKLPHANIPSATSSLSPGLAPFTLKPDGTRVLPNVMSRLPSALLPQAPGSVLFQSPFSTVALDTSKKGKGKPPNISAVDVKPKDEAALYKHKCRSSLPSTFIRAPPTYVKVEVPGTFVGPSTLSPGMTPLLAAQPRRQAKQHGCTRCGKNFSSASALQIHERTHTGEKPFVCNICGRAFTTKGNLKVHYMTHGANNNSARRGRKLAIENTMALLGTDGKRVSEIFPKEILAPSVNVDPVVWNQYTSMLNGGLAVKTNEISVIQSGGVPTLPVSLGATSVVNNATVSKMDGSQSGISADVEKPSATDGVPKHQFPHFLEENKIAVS
| Strand | E-score |
| --- | --- |
| ACCCGTTA | -0.00227 |
| GGTTTACA | 0.203 |
| AATGCGCG | -0.00802 |
| GTTGGTCA | 0.0533 |
| CATGGCCC | -0.25 |

Set 3
Target: Interferon regulatory factor 7, full length, phosphomimetic (IRF7, Homo sapiens, UniProt Q92985, residues 1-503, S471D/S472D/S475D/S476D/S477D/S483D/S484D/S487D)
Method: protein-binding microarray
Molecule type: double-stranded DNA, one strand shown
Matrix: in vitro
Tested at: 2200 nM top
Notes: 60-bp whole probe
Added: salmon DNA 0.4 mg/ml
Baseline: random background probes
Direction: higher = stronger binding
Target sequence (chain): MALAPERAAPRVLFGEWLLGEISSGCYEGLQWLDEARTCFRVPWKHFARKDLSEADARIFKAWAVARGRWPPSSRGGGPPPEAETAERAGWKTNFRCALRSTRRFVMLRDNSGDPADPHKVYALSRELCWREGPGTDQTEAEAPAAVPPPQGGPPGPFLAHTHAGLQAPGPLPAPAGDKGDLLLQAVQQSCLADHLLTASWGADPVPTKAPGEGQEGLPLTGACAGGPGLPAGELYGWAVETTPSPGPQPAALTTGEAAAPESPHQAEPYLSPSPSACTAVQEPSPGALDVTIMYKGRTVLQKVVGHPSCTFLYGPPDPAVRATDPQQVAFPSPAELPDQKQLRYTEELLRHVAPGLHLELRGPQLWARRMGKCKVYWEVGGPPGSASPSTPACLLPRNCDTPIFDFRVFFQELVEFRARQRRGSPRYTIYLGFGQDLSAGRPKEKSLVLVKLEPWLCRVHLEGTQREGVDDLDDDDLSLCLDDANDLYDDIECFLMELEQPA
| Strand | fitted relative affinity |
| --- | --- |
| GCCTAGCACTACGGTATCGGGTATCGGGACGTGCTAGTCTTGATTCGCTTGACGCTGCTG | 0.164 z-score |
| GCCTAGCACGACGATTTCAGTCTCGAGAAGTGCTAGGTCTTGATTCGCTTGACGCTGCTG | 0.785 z-score |
| GCCTAGCACTCCCCGGAGCTGGACAGAAGGTGCTAGGTCTTGATTCGCTTGACGCTGCTG | -0.912 z-score |
| GCCTAGCACTAGTTTTACTTTCTATGTCTGTGCTAGGTCTTGATTCGCTTGACGCTGCTG | 4.69 z-score |

Other studies, line by line
| Substance | target | assay | system | setting | scale | measurement | result |
| --- | --- | --- | --- | --- | --- | --- | --- |
| PhoQ, residues 284 288 289 292 302 303 SCEHLI | PhoP, residues 12 14 15 18 19 AWHSL (Escherichia coli, UniProt P23836) | Sort-seq, refers to: YFP reporter | E. coli | PhoQ-PhoP variant library, added: 10 µM Mg2+ | baseline: high Mg2+ state, higher = stronger signaling | fold induction | 4.63 |

For quick reference, copied from above (set 3):
| Strand | fitted relative affinity |
| --- | --- |
| GCCTAGCACGACGATTTCAGTCTCGAGAAGTGCTAGGTCTTGATTCGCTTGACGCTGCTG | 0.785 z-score |
| GCCTAGCACTCCCCGGAGCTGGACAGAAGGTGCTAGGTCTTGATTCGCTTGACGCTGCTG | -0.912 z-score |
